Assay results pooled from the literature.
Compare with care: the assays were run in different laboratories. Numbers after ± are the reported error.

SMILES	assay	system	setting	how to read	measurement	result
Cc1cc(O)cc(O)c1C(=O)c1c2c3c(c(O)cc(C)c3oc1=O)C(=O)c1c(O)cc(O)cc1-2	general toxicity	Kunming mouse	intraperitoneal, single dose	–	MTD	> 400 mg/kg
COc1cc(NC(=O)C(=O)c2c(C)n(Cc3ccc(Cl)cc3)c3ccc(C)cc23)ccn1	–	cynomolgus monkey, both sexes, plasma	intravenous, 1 mg/kg	–	Vz	18.6 L/kg
[11CH3]Sc1ccc(C(=O)C2CCN(C3Cc4ccccc4CC3O)CC2)cc1 (single isomer, unassigned; (-))	PET imaging	cynomolgus monkey, striatum	120 min	–	decrease from peak uptake	54%
CCCCCCCCCCCCC(=O)O.O=C1CCCC2C3CCCN4CCCC(CN12)C34 (centres unmarked)	–	water	concentration not given, 298.15 K	–	critical aggregation concentration	0.00096 mol/kg
CC[C@H](C)C(=O)N1CCC(NC(=O)Nc2ccc(OC(F)(F)F)c(F)c2)CC1	–	healthy volunteers	oral, 8 mg single dose, 14 (unit not given)	–	subjects with moderate TEAE	0%
COc1ccc(NC(=O)Cn2c(=O)c3ccccc3n(CC(=O)Nc3cc([125I])c(OC)cc3OC)c2=O)cc1	–	rat, lung	intravenous, 5 min	–	tracer uptake	0.64 %ID/g
O=C(O)CCC(NP(=O)(O)OCCC[C@@H](NC(=O)CCC(NC(=O)CCCCCNC(=O)CCCCCNC(=O)c1ccc([18F])cc1)C(=O)O)C(=O)O)C(=O)O (some centres unmarked)	radioactivity biodistribution	mouse, PC-3 xenograft, tumour, blood	2 h	–	tumour/blood ratio	11.2 ± 1.31
CC(C)C[C@@H](N)C(=O)NCC(=O)N[C@H](C)C(=O)N[C@H](CO)C(=O)N[C@H](Cc1c[nH]c2ccccc12)C(=O)N[C@H](Cc1c[nH]cn1)C(=O)N[C@H](CCCNC(=N)N)C(=O)N1CCC[C@@H]1C(=O)N[C@H](CC(=O)O)C(=O)N[C@H](CCCCN)C(=O)N[C@H](CS)C(=O)N[C@H](CS)C(=O)N[C@H](CC(C)C)C(=O)NCC(=O)N[C@H](Cc1ccc(O)cc1)C(=O)N[C@H](CCC(N)=O)C(=O)N[C@H](CCCCN)C(=O)N[C@H](CCCNC(=N)N)C(=O)N1CCC[C@@H]1C(=O)N[C@H](CC(C)C)C(=O)N1CCC[C@@H]1C(N)=O	LC-MS/MS	rat plasma	500 ng/mL, -80 to 25 °C, 3 freeze-thaw cycles	relative to: nominal	accuracy	95.3%
CCCCCCCC(=O)N[C@@H](CCCCN)C(=O)N[C@H](C(=O)N[C@@H](C)C(=O)NCC(=O)N[C@@H](CCCCN)C(=O)N[C@H](C(=O)N[C@@H](C)C(=O)N[C@@H](CCCCN)C(=O)N[C@H](C(=O)N[C@@H](C)C(=O)NCC(=O)N[C@@H](CCCCN)C(=O)N[C@H](C(=O)N[C@@H](C)C(=O)N[C@@H](CCCCN)C(=O)N[C@H](C(=O)N[C@@H](C)C(=O)NCC(=O)N[C@@H](CCCCN)C(=O)N[C@H](C(=O)N[C@@H](C)C(N)=O)[C@@H](C)CC)[C@@H](C)CC)[C@@H](C)CC)[C@@H](C)CC)[C@@H](C)CC)[C@@H](C)CC	circular dichroism	POPE:TOCL vesicles	–	–	melting temperature	~60 °C
[2H]C([2H])([2H])C([2H])([2H])C([2H])([2H])OC(C(=O)OC1CCNCC1)(c1ccccc1)c1ccccc1	measured: aspartate aminotransferase increased	healthy Japanese male	oral, 12 mg once daily, 16 days	–	adverse drug reactions	0%
CCCC[C@H]1C(=O)N(C)[C@@H](CCCC)C(=O)N[C@@H](CCCNC(=O)CN2CCN(CC(=O)O)CCN(CC(=O)O)CCN(CC(=O)O)CC2)C(=O)N[C@H](C(=O)NCC(N)=O)CSCC(=O)N[C@@H](Cc2ccc(O)cc2)C(=O)N(C)[C@@H](C)C(=O)N[C@@H](CC(N)=O)C(=O)N2CCC[C@H]2C(=O)N[C@@H](Cc2c[nH]cn2)C(=O)N[C@@H](CC(C)C)C(=O)N(C)CC(=O)N[C@@H](Cc2c[nH]c3ccccc23)C(=O)N[C@@H](CO)C(=O)N[C@@H](Cc2c[nH]c3ccccc23)C(=O)N1C [gallium-68 labelled]	static PET	NOD/SCID mice, CHO-hPD-L1 xenograft, CHO-hPD-L1 tumour	intravenous, 1 h post injection, before atezolizumab treatment	–	tumour to muscle ratio	7.72 ± 0.48
C[C@H]1N=C(c2ccccc2F)c2cc(Br)ccc2-n2cnc(C(=O)OC3O[C@H](C(=O)O)[C@@H](O)[C@H](O)[C@H]3O)c21 (some centres unmarked)	LC-MS/MS	Swiss Webster mouse, female, urine	oral, 750 µg parent drug, 0 to 24 h	–	cumulative excretion	5.8 ± 0.4%
O=c1cc(-c2ccccc2)oc2c(Br)c(O)c(O)c(O)c12	–	C57BL/6 mouse, plasma	intravenous, 10 mg/kg	–	time to fall to EC99.9	~30 min
CSCC[C@@H]1NC(=O)[C@@H]2CSSC[C@H](NC(=O)[C@H](CO)NC(=O)[C@H](C)N)C(=O)N[C@@H](CCCNC(=N)N)C(=O)N[C@@H]([C@@H](C)O)C(=O)N3CCC[C@H]3C(=O)N[C@@H](CCCCN)C(=O)N[C@@H](CC(=O)O)C(=O)N[C@H]3CSSC[C@H](NC(=O)[C@H](CCCCN)NC(=O)[C@H](CCCNC(=N)N)NC(=O)[C@H](CC(N)=O)NC1=O)C(=O)N[C@@H](CCCCN)C(=O)N[C@H]1CSSC[C@H](NC(=O)[C@@H]4CCCN4C(=O)[C@H](CC(=O)O)NC(=O)[C@H](C)NC3=O)C(=O)N[C@@H](C)C(=O)N[C@@H](CCCCN)C(=O)N[C@@H](CCC(=O)O)C(=O)N[C@@H]([C@@H](C)O)C(=O)NCC(=O)N[C@@H](CSSC[C@@H](C(N)=O)NC(=O)[C@H](CCCNC(=N)N)NC(=O)[C@H](CC(N)=O)NC1=O)C(=O)N1CCC[C@H]1C(=O)N[C@@H](Cc1ccc(O)cc1)C(=O)NCC(=O)N[C@@H](CCCCN)C(=O)N2	–	DA rat, pristane-induced arthritis, serum	subcutaneous, single 0.1 mg/kg at onset, end of 21-day trial	–	indirect bilirubin	0.02 mg/dL
CC[C@H](C)[C@H](NC(=O)CN)C(=O)N[C@@H](CCCNC(=N)N)C(=O)N[C@@H](CCCCN)C(=O)N[C@@H](Cc1c[nH]c2ccccc12)C(=O)N[C@@H](Cc1ccccc1)C(=O)N[C@@H](CCCCN)C(=O)N[C@@H](CCCCN)C(=O)N[C@@H](C)C(=O)N[C@@H](C)C(=O)N[C@@H](Cc1c[nH]cn1)C(=O)N[C@H](C(=O)NCC(=O)N[C@@H](CCCCN)C(=O)N[C@@H](CCC(=O)O)C(=O)N[C@H](C(=O)NCC(=O)N[C@@H](CCCCN)C(=O)N[C@H](C(=O)N[C@@H](C)C(=O)N[C@@H](CC(C)C)C(=O)N[C@@H](CC(N)=O)C(=O)N[C@@H](C)C(=O)N[C@@H](CS)C(=O)N[C@@H](CC(C)C)C(=O)O)C(C)C)C(C)C)C(C)C	–	zebrafish embryos	1 h, 4, 28, 52 hpf	–	acute toxic concentration	5 to 25 µg/mL
OC1(C(F)(F)F)CCN(c2nc(Nc3ccnc(C(F)(F)F)c3)nc(-c3cccc(C(F)(F)F)n3)n2)C1 (centres unmarked)	–	monkey, both sexes	oral	–	cardiovascular NOAEL	50 mg/kg
COc1cc2c3c(c4cc(OC)c(OC)cc4c2cc1OC)C(=O)N1CCCCC1C3 (centres unmarked)	–	swine cells	24 (unit not given)	–	CC50	> 100 µM
CC(C)[C@H](NC(=O)CNC(=O)[C@H](CCC(N)=O)NC(=O)[C@H](C)N)C(=O)O	–	healthy male volunteers	intravenous, 90 mg/kg/h, 2 h, together with: LPS 2 ng/kg	–	subjects with Possibly related AE	0%
C/C(=N\OCCCN1CCCCC1)c1ccc(C(F)(F)F)cc1	–	mouse, plasma	intravenous, 5 mg/kg	–	Vd	42.2 L/kg
O=C(c1ccc(F)cc1)C1CCN(C2Cc3c(cccc3OCC[18F])CC2O)CC1 (single isomer, unassigned; (-))	–	Sprague-Dawley rat, male, heart	intravenous, dose not given, 5 min	–	tissue uptake	0.706 ± 0.17 %ID/g
CC[C@@H](C)[C@@H](NC(=O)[C@@H](C)NC(=O)[C@@H](CCCCN)NC(=O)[C@@H](CC(C)C)NC(=O)[C@@H](C)NC(=O)[C@H](NC(=O)[C@@H](Cc1c[nH]cn1)NC(=O)[C@@H](CC(C)C)NC(=O)[C@H](NC(=O)[C@H](NC(=O)[C@@H](CCCCN)NC(=O)[C@@H](CCCCN)NC(=O)[C@@H](C)NC(=O)[C@@H](CO)NC(=O)[C@@H](CCCCN)NC(=O)[C@@H](Cc1ccccc1)NC(=O)[C@H](NC(=O)[C@@H](CCCCN)NC(=O)[C@@H](CC(C)C)NC(=O)[C@@H](Cc1ccccc1)NC(=O)[C@@H](CO)NC(=O)[C@@H](CCCCN)NC(=O)[C@@H](Cc1c[nH]c2ccccc12)NC(=O)[C@@H](CCCCN)NC(C)=O)[C@H](C)O)[C@H](C)O)C(C)C)[C@H](C)O)C(=O)N[C@H](CO)C(=O)N[C@H](CO)C(N)=O	circular dichroism	buffer with 50% TFE	5 °C, at 222 nm	–	mean residue ellipticity	34100 deg cm²/dmol
COc1cc2ccnc(Cc3ccc(O[11CH3])c(OC)c3)c2cc1OC	–	Sprague-Dawley rat	intravenous, dose not given, 30 min	relative to: 5 min value	kidney radioactivity	42%
CC(C)[C@H](NC(=O)CNC(=O)[C@H](CCC(N)=O)NC(=O)[C@H](C)N)C(=O)O	–	human	single dose, 1 mg/kg	–	probably related adverse events	0%
COc1cc(-c2nc3ccccc3s2)cc(CN(C)Cc2ccccn2)c1O	Alamar Blue	Neuro2A, mouse	2 µM, 40 h	–	viability	77 ± 2%
CC[C@H](C)[C@H](NC(=O)[C@H](C)NC(=O)[C@H](CCCNC(=N)N)NC(=O)CNC(=O)CNC(=O)[C@H](CCCNC(=N)N)NC(=O)[C@H](CCCNC(=N)N)NC(=O)[C@H](CCCNC(=N)N)NC(=O)[C@H](CCC(N)=O)NC(=O)[C@H](CCCNC(=N)N)NC(=O)[C@H](CCCNC(=N)N)NC(=O)[C@H](CCCCN)NC(=O)[C@H](CCCCN)NC(=O)[C@H](CCCNC(=N)N)NC(=O)CNC(=O)[C@@H](N)Cc1ccc(O)cc1)C(=O)N[C@H](C(=O)N[C@H](C(=O)N[C@@H](CC(C)C)C(=O)N[C@@H](CC(=O)O)C(=O)N[C@H](C(=O)N[C@@H](CCC(=O)O)C(=O)N[C@@H](CCCCN)C(=O)N[C@@H](CO)C(=O)O)[C@@H](C)O)[C@@H](C)CC)[C@@H](C)O	–	male Sprague-Dawley rat, myocardial infarction	iv, 1 mg/kg, 2 h reperfusion	–	rectal body temperature	37.2 ± 0.1 °C
CCN(Cc1ccccc1)C(=O)CCc1nc(CN2CCN(C(=O)Cc3ccc(OC)c(OC)c3)CC2)no1	–	rat, brain	intravenous, 1 mg/kg, 5 min	–	concentration	7.4 ng/g
COC(=O)C[C@](O)(CCCC(C)(C)OC(C)=O)C(=O)O[C@@H]1C(OC)=C[C@]23CCCN2CCc2cc4c(cc2[C@H]13)OCO4	–	CD1 mouse, esophagus	subcutaneous, 1 mg/kg, 24 h	–	concentration	not detected
CC[C@H](C)[C@H](NC(=O)[C@H](C)NC(=O)CNC(=O)[C@H](Cc1ccccc1)NC(=O)[C@H](CC(N)=O)NC(=O)[C@H](CC(N)=O)NC(=O)[C@H](CO)NC(=O)[C@H](CO)NC(=O)[C@H](Cc1c[nH]cn1)NC(=O)[C@@H](NC(=O)[C@H](CC(C)C)NC(=O)[C@H](Cc1ccccc1)NC(=O)[C@H](CC(N)=O)NC(=O)[C@H](C)NC(=O)[C@H](CC(C)C)NC(=O)[C@H](CCCNC(=N)N)NC(=O)[C@H](CCC(N)=O)NC(=O)[C@@H](NC(=O)[C@H](C)NC(=O)[C@@H]1CSSC[C@H](NC(=O)[C@@H](N)CCCCN)C(=O)N[C@@H](CC(N)=O)C(=O)N[C@@H]([C@@H](C)O)C(=O)N[C@@H](C)C(=O)N[C@@H]([C@@H](C)O)C(=O)N1)[C@@H](C)O)C(C)C)C(=O)N[C@@H](CC(C)C)C(=O)N[C@@H](CO)C(=O)N[C@@H](CO)C(=O)N[C@H](C(=O)N[C@@H](CC(N)=O)C(=O)N[C@H](C(=O)NCC(=O)N[C@@H](CO)C(=O)N[C@@H](CC(N)=O)C(=O)N[C@H](C(=O)N[C@@H](Cc1ccc(O)cc1)C(N)=O)[C@@H](C)O)C(C)C)[C@@H](C)O	–	–	4 µM, pH 7.3	–	critical temperature	10 °C
CC(CCC(=O)NCC(=O)O)C1CCC2C3CCC4CC(OC5OC(C(=O)O)C(O)C(O)C5O)CCC4(C)C3CC(O)C12C (centres unmarked)	–	human, SLCO1B1 *5/*15, plasma	geometric mean, sex-adjusted	–	plasma concentration	516 ng/mL

For quick reference, copied from above:
SMILES	assay	system	setting	how to read	measurement	result
CC[C@H](C)[C@H](NC(=O)CN)C(=O)N[C@@H](CCCNC(=N)N)C(=O)N[C@@H](CCCCN)C(=O)N[C@@H](Cc1c[nH]c2ccccc12)C(=O)N[C@@H](Cc1ccccc1)C(=O)N[C@@H](CCCCN)C(=O)N[C@@H](CCCCN)C(=O)N[C@@H](C)C(=O)N[C@@H](C)C(=O)N[C@@H](Cc1c[nH]cn1)C(=O)N[C@H](C(=O)NCC(=O)N[C@@H](CCCCN)C(=O)N[C@@H](CCC(=O)O)C(=O)N[C@H](C(=O)NCC(=O)N[C@@H](CCCCN)C(=O)N[C@H](C(=O)N[C@@H](C)C(=O)N[C@@H](CC(C)C)C(=O)N[C@@H](CC(N)=O)C(=O)N[C@@H](C)C(=O)N[C@@H](CS)C(=O)N[C@@H](CC(C)C)C(=O)O)C(C)C)C(C)C)C(C)C	–	zebrafish embryos	1 h, 4, 28, 52 hpf	–	acute toxic concentration	5 to 25 µg/mL
CC(C)[C@H](NC(=O)CNC(=O)[C@H](CCC(N)=O)NC(=O)[C@H](C)N)C(=O)O	–	healthy male volunteers	intravenous, 90 mg/kg/h, 2 h, together with: LPS 2 ng/kg	–	subjects with Possibly related AE	0%
OC1(C(F)(F)F)CCN(c2nc(Nc3ccnc(C(F)(F)F)c3)nc(-c3cccc(C(F)(F)F)n3)n2)C1 (centres unmarked)	–	monkey, both sexes	oral	–	cardiovascular NOAEL	50 mg/kg
COc1cc2ccnc(Cc3ccc(O[11CH3])c(OC)c3)c2cc1OC	–	Sprague-Dawley rat	intravenous, dose not given, 30 min	relative to: 5 min value	kidney radioactivity	42%
